Published values of several laboratories.
Numbered parts are unrelated; each lists some results of a single study. Changes are numbered by the printed parent chain.

Study 1
Target: Interferon regulatory factor 5, full length, phosphomimetic (IRF5, Homo sapiens, UniProt Q13568-2, residues 1-514, S451D/S453D/S456D/S462D)
Technique: protein-binding microarray
Molecule type: double-stranded DNA, one strand shown
Sample: in vitro
Tested at: 940 nM top
Notes: 60-bp whole probe
Together with: salmon DNA 0.4 mg/ml
Reference: random background probes
Direction: higher = stronger binding
Shared flanks, not repeated: GCCTAGCAC … GTCTTGATTCGCTTGACGCTGCTG
Strand	fitted relative affinity [z-score]
GACGGTTTCAGTCTCGGGACGTGCTAG	6.45
GAAGGTATCGGGTTTCGGGACGTGCTA	4.55
GACGGTATTCTTCTCCTGACGTGCTAG	0.72
TTAGATATCGGGACTGGACTAGTGCTA	0.0584
TTAGGTCTCCTTCTTCTTTAGTGCTAG	0.79
TTAGGTTCGGGTTTCGGTTAGTGCTAG	6.69
GACGCTATCGGTTTCGGGACGTGCTAG	4.05
TCAGTTCCTTATTTAAGACTGTGCTAG	0.129
GACGGCATCGGGTTTCGGGACGTGCTA	1.86
TTAGGACTGCTTTGCCTTTAGTGCTAG	-0.432
AAACCATCCTGTATGGATGTGTGCTAG	-0.624
TCATCTCTCTTTCCACTACTGTGCTAG	2.3
GACGATTTCACTTTCGAGACGTGCTAG	2.92
GAAGGTTTCGGTCTCGGGACGTGCTAG	11.9
GAAAGGTACCATGGTGGCTCGTGCTAG	-0.27
TCAGAAATCAACTTTTTTACTGTGCTA	-0.0878
GCCGGACTGGGTTTCGGGACGTGCTAG	2.91
TTAGGTTTCGGTCTCTGTTAGTGCTAG	14.1
GCCCCTCTCCTCTCAGGAGCTGTGCTA	-0.0475
GACGATTTCAATTCCGAGACGTGCTAG	0.379
TACTACATATCACCTCAATCGTGCTAG	1.17
GACGGTTGCCTTCTCCTGACGTGCTAG	0.279
GACGGTCTCCTATTCCTGACGTGCTAG	0.241
GACGGTCTCGGATTGGGGACGTGCTAG	0.867
TTAGAACTGGGCTTTCGATTAGTGCTA	0.79

Study 2
Target: CCND2, cyclin fold, Cln2 fusion (human)
Technique: yeast growth competition, sequencing
Sample: yeast
Notes: weak parent motif
Reference: not given
Direction: higher = stronger binding
Parent: RBL1 docking peptide (human); GSAKRRLFGEDPP
Variant	normalised enrichment score
GSAKRRLQGEDPP [F8Q]	0.000602
GSAKRRLFGETPP [D11T]	0.302
GSAKRRLPGEDPP [F8P]	0.264
GSAKRRAFGEDPP [L7A]	0.112
YSAKRRLFGEDPP [G1Y]	1.18
GSAKRRLFGEQPP [D11Q]	0.382
GSAKTRLFGEDPP [R5T]	-0.243
GSAKRILFGEDPP [R6I]	0.337
GYAKRRLFGEDPP [S2Y]	0.483
GSNKRRLFGEDPP [A3N]	0.0333
GSAKRRLFGEDMP [P12M]	0.116
GSAKRRLFGEDAP [P12A]	0.591
GSAKRRLFGENPP [D11N]	0.348

Study 3
Target: Myc proto-oncogene protein, bHLH-zipper, MAX partner unstated (MYC, Homo sapiens, UniProt P01106, residues 368-449)
UniProt P01106, sequence (368-449, looked up): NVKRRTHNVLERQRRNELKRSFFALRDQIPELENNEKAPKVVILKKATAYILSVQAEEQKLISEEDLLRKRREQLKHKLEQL
Technique: protein-binding microarray
Molecule type: double-stranded DNA, one strand shown
Sample: in vitro
Tested at: not given
Notes: k-mer, scored over probes, only values ≥0.25
Direction: higher = stronger binding
Strand	E-score
ATGGCATC	0.277
CATGTAAA	0.256
ACAGCGTG	0.405
CCCGTGTA	0.276
ACGTGCGA	0.413
ACACCTGC	0.281
CCGTACAC	0.28
AAACGTGT	0.372
GCATGGGC	0.388
CCACGCTA	0.388
CACGCTCC	0.37
CCCACCCA	0.319
CCCCACGA	0.264

Study 4
Target: Histone acetyltransferase KAT6A, both winged helices, GST fusion (KAT6A, Homo sapiens, UniProt Q92794, residues 1-181)
Technique: protein binding microarray
Molecule type: double-stranded DNA, one strand shown
Sample: in vitro
Tested at: not given
Notes: 8-mer, flanks averaged, mean of 2 arrays, mostly near background
Reference: not given
Direction: higher = stronger binding
Target sequence (chain): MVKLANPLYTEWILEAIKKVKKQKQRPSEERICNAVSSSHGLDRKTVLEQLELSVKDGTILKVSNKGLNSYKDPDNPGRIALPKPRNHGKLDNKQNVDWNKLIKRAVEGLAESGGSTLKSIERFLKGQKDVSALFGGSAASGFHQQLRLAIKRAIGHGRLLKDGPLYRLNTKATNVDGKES
Strand	E-score
AGGTCCAC	-0.145
ATGACAGC	-0.0635
AGGGAACG	-0.101
CTAAATTA	-0.107
CGATGATC	0.0393
AAGTGAAG	-0.0856
GAATGGTA	-0.283
CCCGGGCC	0.314
ACGACGAG	-0.26
GACGGGCC	0.303
ATGCGTAG	0.13
AGGTGCCC	-0.0393
CAGCACCG	0.131
CATTTAGG	-0.103
AGCTGTCC	-0.155
AGCGGGCG	0.267
CAATATTC	-0.0994
AACTTGCG	0.157
ACTTAGCT	-0.269
TACCAGAA	-0.0755
CATTAGCA	-0.103
GCTGAATA	-0.0419
AGCGTCGA	-0.0579
GCTTCCCC	0.0147
TCACAACA	0.101

Study 5
Target: RING finger protein unkempt homolog, zinc fingers 1-6, GST-SBP tag (UNK, Homo sapiens, UniProt Q9C0B0, residues 30-357)
UniProt Q9C0B0, sequence (30-357, looked up): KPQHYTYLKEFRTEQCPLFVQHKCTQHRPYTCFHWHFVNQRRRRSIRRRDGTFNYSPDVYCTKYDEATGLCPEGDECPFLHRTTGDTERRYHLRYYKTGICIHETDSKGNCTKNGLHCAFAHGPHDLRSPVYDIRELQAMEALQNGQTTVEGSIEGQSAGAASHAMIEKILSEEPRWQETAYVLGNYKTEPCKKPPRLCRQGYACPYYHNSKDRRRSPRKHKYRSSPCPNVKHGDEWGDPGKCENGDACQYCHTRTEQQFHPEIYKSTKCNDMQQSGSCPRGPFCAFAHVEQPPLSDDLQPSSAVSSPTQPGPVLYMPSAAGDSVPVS
Technique: RNA Bind-n-Seq
Molecule type: RNA
Sample: in vitro
Tested at: not given
Notes: RNA with constant flanks, human and mouse sites, ends assumed
Reference: input RNA pool
Direction: higher = stronger binding
Strand	bound/input enrichment [ratio]
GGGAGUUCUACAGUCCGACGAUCGUGUAGGGGUGGUCAGAAUUGUUUCCCAUUCCAUAAUGCCUGAUGUUAUUUUCAAGUUUUAUAUUAUCUUAAGGUGUAUAUGUUUGUUUUCGUUUUAUAUAUAUUAUAUAUAAAUAGAUCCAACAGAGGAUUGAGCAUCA	0.693
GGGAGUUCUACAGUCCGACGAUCUUUCUCACUCACAUUUUUAUGAAGAGAAUUUUGCAUGAUUUUAUGAUUGACAGCAUCUUAAAAUCUAGUUUGUGAUCCUCCUAGCACGGAGAAGGAAUCCUUAUCUGGGAAAAGUCUGUGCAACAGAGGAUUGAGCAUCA	0.237
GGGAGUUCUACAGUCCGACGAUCAUGUCUUUAGUUUCAGAAUAACAGUGCCAUUACCAUAUGUUUGUAUGUUGCAGUUGGAUAUAGCUGAGACUCCUCCAUCUUGGUUUUCUCUUCACUCAUCCAUUUCUUCAGCUGCAUGAUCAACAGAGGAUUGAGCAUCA	1.5
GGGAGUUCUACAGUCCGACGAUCUGAAAAUAAUCGUCACCCAGAAAAUCCAGAAAACUGAAGAUUUCAUCAGUUGGAAACAGUAGCACUUUGAAAACUUUUUAGGCCAGCUUUAAUUUAAUGGCCCUACUGAUAUUCACAUCGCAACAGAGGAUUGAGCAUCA	0.888
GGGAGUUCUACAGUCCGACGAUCUUUUUGUACUUUGUAGACUCUGGAGCCCACUGUCCUCUCGGCUCUUUGAAGCUGUGCCCACUACUGCUUUUGUAACUGGAGUCUUUUAACUUCCAUGACGGCACCGCCUGCCGUAUGUUCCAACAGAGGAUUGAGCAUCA	0.164
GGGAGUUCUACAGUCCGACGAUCUUUGUUUUCAUGUUAAGCACGCGUGCUGGUGGUCUUGGCAUCAAUCUUGCGACUGCUGAUGUAGUAAUUUUGUAUGAUUCUGAUUGGAAUCCCCAAGUAGAUCUUCAGGCUAUGGACCGACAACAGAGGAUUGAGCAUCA	0.517
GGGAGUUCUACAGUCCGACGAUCAAAUAUCCUCAGCUGUUCCAAGUGACACUGGAUAUAGAAGUCCAGCCCCAAGACAAAGUGAUCGACUUAACUCCACCAUGGGAACACUACUGCACAAAAGAUGUGAACCCCAGCAUCCUCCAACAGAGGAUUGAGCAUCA	0.212
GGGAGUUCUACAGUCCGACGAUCGUACUAUGUCAAAUCCUAUCUCAAUAAAUAGCAAUUCAUUUAACUCUCUUAGCUGCUUUUUAGGUAGAUAUGUCUUUGUGCCCACUUUAUACAAGAGGCAGCUAAAAGAGUAUAGCAGUACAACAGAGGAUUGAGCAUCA	11.8
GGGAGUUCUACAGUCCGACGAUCUUUCAGUGAAGUGGAGUUACUCCAAGUGAAACGCUGUUUUCUGGUUUUAGCCAAACUGCAAUUAGAUGUGUCUUUGCAAUCUAAAAGUUGUACACAAUCAACAAUACACUUUGCUUACUCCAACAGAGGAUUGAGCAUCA	0.107
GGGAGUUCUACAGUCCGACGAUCGAGUACAUCAAACUCAACCAGCAAAAAACAGCAGAAGAAGAAAAUCCAGAACAUGUAGAAAUUCAGAAGAUGAUGGAUUCCCUCUUCUUAAAAUUGGAUGCCCUCUCAAACUUCCACUUUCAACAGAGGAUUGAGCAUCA	0.302
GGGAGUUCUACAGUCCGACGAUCGCAGAGUCACAUGGCGACAAAAAGAAAGAACCAGUAAAUGGCUGUAAUACAGGAAUUUUGCCACAACCAGUUGGGACAGUCUUGUUGCAAAUACCAGAACCUCAAGAAUCGAACAGUGACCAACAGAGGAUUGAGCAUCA	0.162

A few entries again (study 3):
Strand	E-score
CCGTACAC	0.28
ATGGCATC	0.277
AAACGTGT	0.372
CATGTAAA	0.256
CCCCACGA	0.264
GCATGGGC	0.388
CCCGTGTA	0.276
CCCACCCA	0.319
